# Assay results from different studies.
# Every numbered part comes from another study and shows a few of its results, in no order.

# Series 1
# Target: Ras GTPase-activating protein-binding protein 1, full length (G3BP1, Homo sapiens, UniProt Q13283)
# Chain of UniProt Q13283 (whole entry, looked up): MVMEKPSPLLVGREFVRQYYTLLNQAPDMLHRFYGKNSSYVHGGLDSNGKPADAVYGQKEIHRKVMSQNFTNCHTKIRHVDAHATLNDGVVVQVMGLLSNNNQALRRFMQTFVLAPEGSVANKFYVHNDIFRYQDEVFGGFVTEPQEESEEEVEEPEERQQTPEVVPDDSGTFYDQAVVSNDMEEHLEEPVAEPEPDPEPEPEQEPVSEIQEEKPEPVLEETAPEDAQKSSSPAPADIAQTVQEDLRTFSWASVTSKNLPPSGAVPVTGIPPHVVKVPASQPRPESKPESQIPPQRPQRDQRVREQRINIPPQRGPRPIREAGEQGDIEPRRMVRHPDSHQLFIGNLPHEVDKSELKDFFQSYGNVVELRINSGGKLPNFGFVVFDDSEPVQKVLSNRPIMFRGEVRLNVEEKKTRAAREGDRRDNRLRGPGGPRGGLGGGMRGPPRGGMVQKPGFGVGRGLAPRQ
# Technique: RNA Bind-n-Seq
# Form: RNA
# Matrix: in vitro
# Concentration: 200 nM
# Notes: whole 134-nt RNA, ends assumed
# Together with: 150 mM LiCl
# Baseline: input library
# Direction: higher = stronger binding
# All molecules: 7-deaza-guanosine replaces G
# All sequences stand within: GGGAGUUCUACAGUCCGACGAUC … UGGAAUUCUCGGGUGUCAAGG
Sequence,log2 enrichment
ACCAUGCAGGUGGGCAUCUUUGGGAAGUGGGGCAAGGGGGGGAUAGGGAGGGGGGUAACACUUUGGGAACAGGUGGUCCCAGGUCAAAUC,0.1
CCUGUGCUACACAUCGUAUGUACCGAAUCGGGGUUUUUUGGGGUUUUUUGGUUUUUUGGGAAAGUAUUAUGUUACGCCGUUCGGAUCUGC,0.578
UGGCCCUGGUUGCAUGCGGGGAGGAAGAGGUGGCCUCAUGGAUCGUGGUGGUCCCGGUGGAAUGUUCAGAGGUGGCCGUGGUGGAGACAG,0.357
AAGUCCUGUGCUACACAUCGUAUGUACCGAAUCGGGGCCCGGGGCCCGGGCCCGGGGAAAGUAUUAUGUUACGCCGUUCGGAUCUGCACU,-0.742
UCCUGUGCUACACAUCGUAUGUACCGAAUCGGGGAAAAAAGGGAAAAAAGGGAAAAAAGGAAAGUAUUAUGUUACGCCGUUCGGAUCUGC,0.205
CCUGUGCUACACAUCGUAUGUACCGAAUCGGGGAAAAAAAGGGGUGGGGUUUUUUUGGGGAAAGUAUUAUGUUACGCCGUUCGGAUCUGC,-0.199
GUCCUGUGCUACACAUCGUAUGUACCGAAUCGGGUUUUUUUGGGUUUGGGUUUUUGGGAAAGUAUUAUGUUACGCCGUUCGGAUCUGCAC,-0.705
CCUGUGCUACACAUCGUAUGUACCGAAUCGGGGAAAAAGGGGUUUUUGGGGAAAAAGGGGAAAGUAUUAUGUUACGCCGUUCGGAUCUGC,0.402
ACCAUGCAGGUGGGCAUCUUUGGGAAGUGGGGCAAGGGGGGCAUAGGGAGGGGGGUAACACUUUGGGAACAGGUGGUCCCAGGUCGUUUC,-0.475
UGUGCUACACAUCGUAUGUACCGAAUCGGGGCCCCCCCGGGGCCCCCCCGGGCCCCCCCGGGGAAAGUAUUAUGUUACGCCGUUCGGAUC,-0.663
UGGGAGGUGGAUUUUGUUUAUUUUUUUAGCUCAUUUCCAGGGGUGGGAAUUUUUUUUUAAUACGUGUCAUGAAUAAAGUUGUUUUUGAAA,-0.35

# Series 2
# Target: Interferon regulatory factor 1, DNA-binding domain (IRF1, Homo sapiens, UniProt P10914, residues 1-114)
# Technique: protein-binding microarray
# Form: hairpin DNA
# Matrix: in vitro
# Concentration: not given
# Notes: whole hairpin DNA, median over replicate spots
# Baseline: not given
# Direction: higher = stronger binding
# Residues (chain): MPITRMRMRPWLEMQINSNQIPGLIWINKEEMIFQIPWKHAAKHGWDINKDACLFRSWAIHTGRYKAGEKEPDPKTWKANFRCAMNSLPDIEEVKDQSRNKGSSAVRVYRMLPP
Sequence,median fluorescence
GAGGCCCGAAAGCCAAACGCCTCCTGGCGTTTGGCTTTCGGGCCTCACAC (5mC at 14),522 a.u.
GAGGCCCGAAGGTGAAACGCCTCCTGGCGTTTCACCTTCGGGCCTCACAC,536 a.u.
GAGGCCCGAACGCGAAACGCCTCCTGGCGTTTCGCGTTCGGGCCTCACAC,572 a.u.
GAGGCCCCGAAGTGAAACGCCTCCTGGCGTTTCACTTCGGGGCCTCACAC (5mC at 8),624 a.u.
GAGGCCCGAAAGCGAAACGCCTCCTGGCGTTTCGCTTTCGGGCCTCACAC (5mC at 39),1380 a.u.
GAGGCCCGAATGCGAAACGCCTCCTGGCGTTTCGCATTCGGGCCTCACAC,638 a.u.
GAGGCCCCAAAGCGAAACGCCTCCTGGCGTTTCGCTTTGGGGCCTCACAC (5mC at 8),907 a.u.
GAGGCCCCGAAGTGAAACGCCTCCTGGCGTTTCACTTCGGGGCCTCACAC (5mC at 38),582 a.u.
GAGGCCCGAAAGCGAAACGCCTCCTGGCGTTTCGCTTTCGGGCCTCACAC (5mC at 7 13 33),847 a.u.
GAGGCCCGAAACTGAAACGCCTCCTGGCGTTTCAGTTTCGGGCCTCACAC (5mC at 12),1190 a.u.
GAGGCCCGGAAGCGAAACGCCTCCTGGCGTTTCGCTTCCGGGCCTCACAC (5mC at 38),592 a.u.
GAGGCCCGATAGTGAAACGCCTCCTGGCGTTTCACTATCGGGCCTCACAC,684 a.u.
GAGGCCAGAAAGCGAAACGCCTCCTGGCGTTTCGCTTTCTGGCCTCACAC,1130 a.u.
GAGGCCCGAAAGCCGAACGCCTCCTGGCGTTCGGCTTTCGGGCCTCACAC (5mC at 14 32),515 a.u.
GAGGCCCGAAAGCGAACCGCCTCCTGGCGGTTCGCTTTCGGGCCTCACAC,513 a.u.
GAGGCCCGAAAGTGAACCGCCTCCTGGCGGTTCACTTTCGGGCCTCACAC,544 a.u.
GAGGCCCGCAAGTGAAACGCCTCCTGGCGTTTCACTTGCGGGCCTCACAC,588 a.u.
GAGGCCCGACAGTGAAACGCCTCCTGGCGTTTCACTGTCGGGCCTCACAC,544 a.u.
GAGGCCCGAAATTGAAACGCCTCCTGGCGTTTCAATTTCGGGCCTCACAC,610 a.u.
GAGGCCCGAAAGCGCAACGCCTCCTGGCGTTGCGCTTTCGGGCCTCACAC,515 a.u.
GAGGCCCGAAAGCGACGCGCCTCCTGGCGCGTCGCTTTCGGGCCTCACAC (5mC at 16),544 a.u.
GAGGCCCGAAAGCGAACGGCCTCCTGGCCGTTCGCTTTCGGGCCTCACAC (5mC at 29),552 a.u.
GAGGCCCGAAAGCGAGACGCCTCCTGGCGTCTCGCTTTCGGGCCTCACAC (5mC at 31),553 a.u.
GAGGCCCGAAAGTGAAACGCCTCCTGGCGTTTCACTTTCGGGCCTCACAC (5mC at 39),1250 a.u.
GAGGCCCGAAAGCGACGCGCCTCCTGGCGCGTCGCTTTCGGGCCTCACAC (5mC at 16 30),536 a.u.

# Series 3
# Target: Prothrombin, mature alpha-thrombin (F2, Homo sapiens, UniProt P00734)
# Technique: aptamer microarray, sandwich
# Form: DNA with 2'F-ANA
# Matrix: in vitro
# Concentration: 200 nM
# Notes: whole 15-mer aptamer, many near background
# Together with: Cy3 exosite-II aptamer, 400 nM
# Direction: higher = stronger binding
# Sequence: GGTTGGTGTGGTTGG
Modification,mean fluorescence intensity [a.u.]
2'F-ANA at 1 5 8 9 10 13 14,47.7
2'F-ANA at 2 7 9 10 11 14 15,83.3
2'F-ANA at 4 7 9 12 14,114
2'F-ANA at 1 3 6 8 10 15,83.1
2'F-ANA at 1 2 6 8 12 14 15,81.1
2'F-ANA at 1 4 5 6 7 10 13 14,43.1
2'F-ANA at 6 10 12 14,107
2'F-ANA at 1 2 5 6 8 15,65.9
2'F-ANA at 1 6 8 9 12,395
2'F-ANA at 1 6 11 12 15,276
2'F-ANA at 1 8 9 11 14,53.9
2'F-ANA at 1 4 6 8 12 14,63.8
2'F-ANA at 1 3 4 6 7 8 10 11 12 14,54.4
2'F-ANA at 1 2 4 8 9 11 12 13,170
2'F-ANA at 5 12 13 14 15,48.3
2'F-ANA at 6 7 10 11 12 13 14 15,105
2'F-ANA at 4 8 9 15,354
2'F-ANA at 4 5 6 11 12 13 14,133
2'F-ANA at 8 10 11 14,97.9
2'F-ANA at 2 3 5 8 11 12 13 14 15,63.8
2'F-ANA at 1 5 6 8 10 12 13 14 15,46.3
2'F-ANA at 2 6 8 12 13,445
2'F-ANA at 1 5 7 8 9 12,128
2'F-ANA at 1 3 6 8 9 10 13,69.5
2'F-ANA at 2 3 9 12 14,497

# Series 4
# Target: Interferon regulatory factor 7, full length, phosphomimetic (IRF7, Homo sapiens, UniProt Q92985, residues 1-503, S101K/S471D/S472D/S475D/S476D/S477D/S483D/S484D/S487D)
# Technique: protein-binding microarray
# Form: double-stranded DNA, one strand shown
# Matrix: in vitro
# Concentration: 250 nM
# Notes: 60-bp whole probe
# Together with: salmon DNA 0.4 mg/ml
# Baseline: random background probes
# Direction: higher = stronger binding
# All sequences stand within: GCCTAGCAC … GTCTTGATTCGCTTGACGCTGCTG
# Residues (chain): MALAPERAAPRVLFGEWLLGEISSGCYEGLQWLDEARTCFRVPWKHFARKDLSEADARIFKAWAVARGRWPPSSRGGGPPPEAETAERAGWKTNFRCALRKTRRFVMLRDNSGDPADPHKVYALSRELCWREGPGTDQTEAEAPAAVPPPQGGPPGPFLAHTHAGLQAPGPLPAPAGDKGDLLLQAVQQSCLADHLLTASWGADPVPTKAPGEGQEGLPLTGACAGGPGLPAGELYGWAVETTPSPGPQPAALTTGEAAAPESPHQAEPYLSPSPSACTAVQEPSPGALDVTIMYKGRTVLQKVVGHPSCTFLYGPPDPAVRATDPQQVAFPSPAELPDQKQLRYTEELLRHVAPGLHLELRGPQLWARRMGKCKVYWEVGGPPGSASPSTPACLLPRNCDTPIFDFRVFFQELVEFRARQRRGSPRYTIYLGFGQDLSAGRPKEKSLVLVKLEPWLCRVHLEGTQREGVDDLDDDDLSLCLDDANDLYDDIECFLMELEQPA
Sequence,log fluorescence [z-score]
TCAACCCTCCCTCTGTAAGTGTGCTAG,-0.153
TTAGGTTTCGGTTTCCGTTAGTGCTAG,14.9
TTAGGTATCGGTATCGTTTAGTGCTAG,3.04
GACGGACTGGGAATCGGGACGTGCTAG,-0.472
AATCATTCACCTGTCGTTGAGTGCTAG,-0.0484
GACGGACTGGGGTTTCGCGACGTGCTA,-0.46
TTAGGTTTCGGGTATGGGTTAGTGCTA,6.51
GGCTCTCTGGACTGTGTGTTTGTGCTA,-0.654
TGTGCTTTCCTGATGGTTCTGTGCTAG,0.26
GACGGACTGGACTCTCGGGACGTGCTA,-0.959
GACGGTTCCGGTTTCGGGAGGTGCTAG,6.42
TTCGAACTGAGTTTCGATTAGTGCTAG,7.61
TTCTTACTTTGGGATTCTGAGTGCTAG,0.466
GACGCTTTCAGTCTCGAGACGTGCTAG,0.882
TACGATCTCAGTCTCGAGACGTGCTAG,0.645
GACGGTTCGCTTTTCCTGACGTGCTAG,1.88
TTAGCACTGGACTTTCGGTTAGTGCTA,0.243
TCATTTCCCACTTTCACACTGTGCTAG,5.19

# Series 5
# Target: Histone acetyltransferase KAT6A, winged helix 1, GST fusion (KAT6A, Homo sapiens, UniProt Q92794, residues 1-85)
# Technique: protein binding microarray
# Form: double-stranded DNA, one strand shown
# Matrix: in vitro
# Concentration: not given
# Notes: 8-mer, flanks averaged, mean of 2 arrays, mostly near background
# Baseline: not given
# Direction: higher = stronger binding
# Construct (chain): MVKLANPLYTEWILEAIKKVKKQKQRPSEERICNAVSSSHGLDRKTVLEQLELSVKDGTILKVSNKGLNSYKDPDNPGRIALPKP
Sequence,E-score
ACGACTGG,0.0588
CTAAGGAA,-0.0463
CGCGCTTC,0.413
CATGCTCG,-0.103
AGGTTATA,-0.167
AAAAAAGA,-0.214
CCTGTTCC,-0.147
ATTTGGAA,-0.232
ATTCTGAC,0.0106
CTCTGGGA,-0.107
ATTAGAAC,-0.029
ATTCTATC,-0.196
CACGAAGA,-0.105
GGACATAC,0.096
ATCTCCAC,0.00984
CGCCTCCG,0.278
GGGCCCCC,0.0563
CTCGGCGA,0.306
GGTCAACC,0.0977
CGACAGCG,0.33
CTAATGGA,-0.0764

# A few entries again (series 4):
Sequence,log fluorescence [z-score]
TTAGGTATCGGTATCGTTTAGTGCTAG,3.04
GACGGACTGGGAATCGGGACGTGCTAG,-0.472
AATCATTCACCTGTCGTTGAGTGCTAG,-0.0484
GACGGACTGGGGTTTCGCGACGTGCTA,-0.46
TTAGGTTTCGGGTATGGGTTAGTGCTA,6.51
GGCTCTCTGGACTGTGTGTTTGTGCTA,-0.654
